Experimental data gathered from unrelated publications.
Each line is one published result; not all experiments were run side by side. Several values in a cell are separate wells, animals, samples, runs or records. Numbers after ± are the reported error.

CSCc1cn(-c2cccc(C(=O)N3CCC(c4nc(-c5ccccc5)n[nH]4)CC3)c2)nn1  solubility (LC-MS; DPBS; 18 h): 64.2 ± 2.9 µM
O=C(Nc1ccc2ccccc2c1)C1CC2(CO1)CC(F)(F)C2 (stereo not drawn)  solubility (kinetic solubility; PBS with 2% DMSO; 2 h, pH 7.4, 25 °C, single incubation): 34 µM and 33 µM
CC(C)(C)C(=O)Nc1ccccc1  solubility (PBS; pH 7.4, 25 °C, 2% DMSO): 454 µM
NS(=O)(=O)c1ccc(N/N=C2\C(=O)Nc3ccc(C(=O)NCCc4c[nH]cn4)cc32)cc1  solubility (aqueous buffer; pH 7.4): < 1.62 µg/mL
C#CCN(C(=O)OCc1ccc(C(=O)N(C)C)cc1)[c-]1cccc1.[Fe+2].c1cc[cH-]c1  solubility (absorbance; RPMI medium with 5% FBS; 1% DMSO): > 200 µM
CCCCCCCC/C=C/CCCCCCCC(=O)[O][Pt-2]1([OH])([Cl])([NH+]=C(CC)N(C)CCNc2c3ccccc3[nH+]c3ccccc23)[NH2+]CCC[NH2+]1.O=[N+]([O-])[O-].O=[N+]([O-])[O-]  solubility (water): ~12.5 µM
O=c1[nH]cccc1[C@H](CO)Nc1nc(N2C[C@@H]3C[C@H]2CO3)c2cc(-c3ccccc3)sc2n1  solubility: 7.2 µM
CC(C)N(Cc1ccccc1)C(=O)C1(C(F)(F)F)CC1  solubility (PBS; 2 h, pH 7.4, 25 °C): 284 µM
CCC1(CC)CC(=O)N(C2c3cc(C(=O)NC4c5ccccc5CC4O)ccc3OC2(C)COC)C(=N)N1 (stereo not drawn)  solubility (simulated gastric fluid; pH 2): ≥ 100 µM
Cc1cc(C(=O)N[C@@H](CC(=O)NC(C)(C)C)C(=O)NCCNC(=O)c2cccc(-c3cc[nH]n3)c2)no1  solubility (aqueous buffer; pH 7.4): > 96 µg/mL
CC(C)C(C)NC(=O)COC(=O)c1cc2c(s1)CCC2 (stereo not drawn)  solubility (PBS 1% DMSO; 10 min): 75.4 µM
O=C(N[c-]1cccc1)OCc1ccc(C(=O)O)cc1.[Fe+2].c1cc[cH-]c1  solubility (absorbance; RPMI medium with 5% FBS; 1% DMSO): > 200 µM
FC(F)(F)C1(c2ccc(CN3CCN(C(c4ccccc4)c4ccc(Cl)cc4)CC3)cc2)CCC1 (stereo not drawn)  solubility (PBS; 2 h, pH 7.4, 25 °C, 2% DMSO): 5 µM
O=c1c2ccccc2[se]n1CCCCCCn1[se]c2ccccc2c1=O  solubility (shake-flask, RP-HPLC; acetonitrile; 24 h, 25 °C): 420 ± 5 µg/mL
FC(F)(F)C1(c2ccc(CN3CCN(C(c4ccccc4)c4ccc(Cl)cc4)CC3)cc2)CC1 (stereo not drawn)  solubility (PBS; 2 h, pH 7.4, 25 °C, 2% DMSO): 2 µM
CC1(C)OB(c2ccc(COC(=O)N(Cc3cn(-c4cc5ccc(O)cc5oc4=O)nn3)[c-]3cccc3)cc2)OC1(C)C.[Fe+2].c1cc[cH-]c1  solubility (absorbance; PBS; pH 7.4, 1% DMSO): 126 ± 6 µM
CN(C)S(=O)(=O)c1ccc(S(=O)(=O)N2CCC(n3c(=O)[nH]c4ccccc43)CC2)cc1  solubility (HPLC; NMP; 24 h, 20 °C): ≥ 10000 µg/mL
O=C(NNCc1ccccc1)C1(C(F)(F)F)CCC1  solubility (PBS; 2 h, pH 7.4, 25 °C): 371 µM
O=C1Nc2ccc(Br)cc2C1=Cc1cc(Br)c(O)c(Br)c1  solubility (AlphaScreen buffer; aqueous buffer, 7.5% DMSO; pH 7.3): 107 ± 10 µM
O=C(NCc1ccc2c(c1)CN(C(=O)c1cc(-c3ccccc3)no1)C2)C1C=CC=CC=C1  solubility (LC-MS; DPBS; 18 h): 0.4 ± 0.1 µM
O=C1Nc2ccc(I)cc2C1=Cc1ccc(O)cc1  solubility (AlphaScreen buffer; aqueous buffer, 7.5% DMSO; pH 7.3): 16.5 ± 1.2 µM
C#CCOc1ccc(/C=C2\SC(=O)N(CC(=O)NCc3ccccc3)C2=O)cc1  solubility (shake-flask HPLC; PEG 400; 40 h, 25 °C): 30000 µg/mL
CN(Cc1ccc(C2(C(F)(F)F)CCC2)cc1)Cc1cccc2ccccc12  solubility (PBS; pH 7.4, 25 °C, 2% DMSO): 8 µM
O=C(Nc1cc(-c2ccnc3[nH]ccc23)c(Cl)cn1)[C@H]1CCC[C@@H](NC(=O)C(F)(F)F)C1  solubility (kinetic solubility; FaSSGF; pH 1.2): 451 µM
O=C(Nc1ccc2ccccc2c1)C1CC2(CCC2)C1  solubility (kinetic solubility; PBS with 2% DMSO; 2 h, pH 7.4, 25 °C, single incubation): 7 µM
O=S1(=O)CC2CCCCC2CS1 (stereo not drawn)  solubility (phase solubility, NMR; water; 25 °C, added: hydroxypropyl-β-cyclodextrin 364 mM): 41600 µM
Cc1ncc2[nH]c(=O)n(-c3cnc(Oc4cccc5c4C(C)(C)CO5)c(Cl)c3)c2n1  solubility (simulated gastric fluid; pH 2): 153 µM
O=C(Nc1ccc2ccccc2c1)C1CC2(CC2)C1  solubility (kinetic solubility; PBS with 2% DMSO; 2 h, pH 7.4, 25 °C, mean of incubations): 3 µM
CC1(C)C(=CC=C2CCCC(C=CC3=[N+](CCC[N+](C)(C)C)c4ccc(S(=O)(=O)O)cc4C3(C)C)=C2SCCOCCOCCC(=O)O)N(CCC[N+](C)(C)C)c2ccc(S(=O)(=O)O)cc21  solubility (PBS; pH 7.4): 79000 µg/mL
O=C(NC1(C(F)(F)F)CCC1)c1ccccc1  solubility (PBS; 2 h, pH 7.4, 25 °C): 338 µM
CCC(C)n1c(C(=O)Nc2cnc(C(=O)NC)n(CC(C)C)c2=O)ncc(NC(=O)c2ncc(NC(=O)c3ccccc3)c(=O)n2Cc2ccc(OC)cc2)c1=O (stereo not drawn)  solubility (thermodynamic; PBS; 4 h, pH 7.4, 25 °C): 5 µM
O=C1Nc2ccc(I)cc2C1=Cc1cncs1  solubility (AlphaScreen buffer; aqueous buffer, 7.5% DMSO; pH 7.3): 6.1 ± 3.5 µM
CC1CCC2C(C)C(OC(=O)CCC(=O)OCCOCCOCCOC(=O)N3CCC(Nc4ccc(S(=O)(=O)NC(=O)c5ccc(N6CCN(CC7=C(c8ccc(Cl)cc8)CC(C)(C)CC7)CC6)cc5Oc5cnc6[nH]ccc6c5)cc4[N+](=O)[O-])CC3)OC3OC4(C)CCC1C32OO4 (stereo not drawn)  solubility: 3.33 µg/mL
OC[C@H]1O[C@@H](n2cnc3c(SCc4ccccc4)nc(Cl)nc32)C[C@@H]1O  solubility (UV absorbance; culture medium; stock diluted to 0.05 mM): 21.6 µM
O=C(Nc1ccc2ccccc2c1)C1CC2(C1)CC(F)(F)C2  solubility (kinetic solubility; PBS with 2% DMSO; 2 h, pH 7.4, 25 °C, mean of incubations): 9 µM
Cc1[nH]nc2c1N=C(c1ccccc1Cl)c1cnc(N3CCOCC3)cc1N2  solubility (aqueous buffer; pH 4.5): 2.1 µg/mL
CC(C)N(Cc1ccccc1)C(=O)C1(C(F)(F)F)CCC1  solubility (PBS; 2 h, pH 7.4, 25 °C): 233 µM
Cc1cc(C(=O)N[C@@H](CC(=O)NC(C)(C)C)C(=O)NCCNC(=O)c2cc(-c3ccccc3)ccn2)no1  solubility (simulated gastric fluid; pH 1.2): > 96 µg/mL
O=C1Nc2ccc(I)cc2C1=Cc1ccccc1  solubility (AlphaScreen buffer; aqueous buffer, 7.5% DMSO; pH 7.3): 39.4 ± 2.3 µM
C#CCN(C(=O)OCc1ccc(F)cc1)[c-]1cccc1.[Fe+2].c1cc[cH-]c1  solubility (absorbance; RPMI medium with 5% FBS; 1% DMSO): 125 ± 14 µM
O=C(NO)c1ccc(/N=N/c2ccccc2)cc1  solubility (water with 5% DMSO): ~100 µM
O=C1Nc2ccc(I)cc2C1=Cc1cc(Br)cc(Br)c1O  solubility (AlphaScreen buffer; aqueous buffer, 7.5% DMSO; pH 7.3): 96.6 ± 10 µM

Some of these lines once more:
O=S1(=O)CC2CCCCC2CS1 (stereo not drawn)  solubility (phase solubility, NMR; water; 25 °C, added: hydroxypropyl-β-cyclodextrin 364 mM): 41600 µM
Cc1ncc2[nH]c(=O)n(-c3cnc(Oc4cccc5c4C(C)(C)CO5)c(Cl)c3)c2n1  solubility (simulated gastric fluid; pH 2): 153 µM
O=C(Nc1ccc2ccccc2c1)C1CC2(CC2)C1  solubility (kinetic solubility; PBS with 2% DMSO; 2 h, pH 7.4, 25 °C, mean of incubations): 3 µM
CC1(C)C(=CC=C2CCCC(C=CC3=[N+](CCC[N+](C)(C)C)c4ccc(S(=O)(=O)O)cc4C3(C)C)=C2SCCOCCOCCC(=O)O)N(CCC[N+](C)(C)C)c2ccc(S(=O)(=O)O)cc21  solubility (PBS; pH 7.4): 79000 µg/mL
O=C(NC1(C(F)(F)F)CCC1)c1ccccc1  solubility (PBS; 2 h, pH 7.4, 25 °C): 338 µM
CCC(C)n1c(C(=O)Nc2cnc(C(=O)NC)n(CC(C)C)c2=O)ncc(NC(=O)c2ncc(NC(=O)c3ccccc3)c(=O)n2Cc2ccc(OC)cc2)c1=O (stereo not drawn)  solubility (thermodynamic; PBS; 4 h, pH 7.4, 25 °C): 5 µM
O=C1Nc2ccc(I)cc2C1=Cc1cncs1  solubility (AlphaScreen buffer; aqueous buffer, 7.5% DMSO; pH 7.3): 6.1 ± 3.5 µM
